Published values collected from several papers.
Each numbered part is a random draw from the data of one study; scales do not carry over between parts. Changes are numbered by the printed parent chain.

Sample 1
Target: DDIT3, bZIP domain (human)
Method: DHFR protein complementation
Medium: yeast
Notes: single substitutions, most at no-binding floor
Reference: wild-type JUN-FOS pair
Direction: higher = stronger binding
Parent: JUN, bZIP domain (human); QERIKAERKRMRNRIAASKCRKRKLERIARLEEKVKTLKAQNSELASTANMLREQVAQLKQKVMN; partner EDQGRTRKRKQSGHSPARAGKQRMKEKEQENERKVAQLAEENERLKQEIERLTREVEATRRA
Substitution | binding fitness [natural log]
L52G | -1.41
S43A | 0.189
K34R | 0.158
S47M | 0.0832
V56T | -0.763
I28C | -0.146
Q55E | 0.0218
K39C | -0.156
E33S | -0.107
E44W | -0.451
A49L | 0.0281
E33K | 0.0116
L31T | -0.448
T48W | -0.0984
N42D | -1.36
L31W | -0.495
E32C | -0.46
T37H | 0.155
E54I | -0.0611
L38R | -1.21
E44L | -0.0313
L59F | -0.535
T48A | -0.0229
A40P | -1.23
M51F | -0.0323

Sample 2
Target: ABI1, truncated, D143A, DHFR fusion (Arabidopsis thaliana)
Method: DHFR PCA, deep sequencing
Medium: yeast
Notes: methotrexate growth selection, single substitutions
Together with: (+)-ABA 710 µM
Reference: wild-type fitted maximum
Direction: higher = stronger binding
Parent: PYL1, truncated, DHFR fusion (Arabidopsis thaliana); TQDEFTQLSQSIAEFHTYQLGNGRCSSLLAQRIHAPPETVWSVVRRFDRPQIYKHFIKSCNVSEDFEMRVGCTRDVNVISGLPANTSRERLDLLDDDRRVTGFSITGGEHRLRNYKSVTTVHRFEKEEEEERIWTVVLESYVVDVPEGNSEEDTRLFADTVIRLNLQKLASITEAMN; partner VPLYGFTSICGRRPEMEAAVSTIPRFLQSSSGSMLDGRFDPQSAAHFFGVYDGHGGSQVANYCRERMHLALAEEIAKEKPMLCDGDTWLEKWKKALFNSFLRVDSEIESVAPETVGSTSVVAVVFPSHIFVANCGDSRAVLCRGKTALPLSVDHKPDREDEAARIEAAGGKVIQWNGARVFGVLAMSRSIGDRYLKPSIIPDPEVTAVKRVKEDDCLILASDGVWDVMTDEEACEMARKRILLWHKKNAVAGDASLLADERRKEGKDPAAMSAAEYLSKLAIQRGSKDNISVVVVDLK
Substitution | relative binding score
V118C | 110%
L20F | 98%
M68N | 97.8%
T135G | 27.3%
S11K | 102%
H55R | 101%
T86E | 98%
E129L | 109%
E130Q | 112%
P36F | 93.7%
P83N | 46%

Sample 3
Substance: PhoQ, residues 284 288 289 292 302 303 SSCCRF
Method: Sort-seq
Measured: YFP reporter
Medium: E. coli
Notes: PhoQ-PhoP variant library
Together with: 10 µM Mg2+
Reference: high Mg2+ state
Direction: higher = stronger signaling
target | fold induction
PhoP, residues 12 14 15 18 19 QQAYL (Escherichia coli, UniProt P23836) | 27.9
PhoP, residues 12 14 15 18 19 LFHKL (Escherichia coli, UniProt P23836) | 1.16
PhoP, residues 12 14 15 18 19 GMGLL (Escherichia coli, UniProt P23836) | 2.8

Sample 4
Target: CCNB2, cyclin fold, Cln2 fusion (human)
Method: yeast growth competition, sequencing
Medium: yeast
Notes: weak parent motif
Reference: not given
Direction: higher = stronger binding
Parent: SAMHD1 docking peptide (human); ASKSRVQLFKDDP; partner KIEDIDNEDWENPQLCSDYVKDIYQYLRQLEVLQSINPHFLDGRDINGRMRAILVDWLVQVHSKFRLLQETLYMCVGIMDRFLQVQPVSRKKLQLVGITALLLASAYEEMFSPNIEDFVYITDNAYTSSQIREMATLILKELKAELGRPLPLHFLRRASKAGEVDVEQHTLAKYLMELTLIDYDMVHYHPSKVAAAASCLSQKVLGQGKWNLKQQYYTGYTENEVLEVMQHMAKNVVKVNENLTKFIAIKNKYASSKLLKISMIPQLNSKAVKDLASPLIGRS
Substitution | normalised enrichment score
D12E | 0.238
K3P | -0.599
Q7G | 0.287
V6T | 0.341
S2H | 0.489
S4I | 1.19
R5L | -0.203
K10T | -0.068
K3D | -0.498
K10E | -0.0156
D11V | 0.278
R5C | 0.233
L8K | 0.432
S4P | -0.227
S2T | 0.00724
S2D | 0.00816
V6F | 0.418
S2P | 0.427
D11A | 0.473
F9E | 0.0202
V6E | 0.401
K10D | 0.0162
D11H | 0.199

Sample 5
Target: Fragile X messenger ribonucleoprotein 1, C-terminal low-complexity region (Fmr1, Mus musculus, UniProt P35922)
Method: RNA Bind-n-Seq
Form: RNA
Medium: in vitro
Tested at: 200 nM
Notes: whole 134-nt RNA, ends assumed
Together with: 150 mM LiCl
Reference: input library
Direction: higher = stronger binding
Each molecule: 7-deaza-guanosine replaces G
Constant ends, left off below: GGGAGUUCUACAGUCCGACGAUC … UGGAAUUCUCGGGUGUCAAGG
Oligonucleotide | log2 enrichment
UAACUUUAGAGGAGGAUCUGAUGGAUAUGGCAGUGGACGUGGAUUUGGGGAUGGCUAUAAUGGGUAUGGAGGAGGACAUGGAGGUGGCAA | 0.682
GGGGUGAGCACAGACAGGAUCGCAGGGAGAGGCCGUAUUAAUUAGCCUGGCUCCCCAGGUUCUGGAACAGCUUUUUGUCCUGUACCCAGU | 0.958
AAGUCCUGUGCUACACAUCGUAUGUACCGAAUCGGUUUUGGUUUUGGGUUUUGGGGAAAGUAUUAUGUUACGCCGUUCGGAUCUGCACUU | -1.56
CCUGUGCUACACAUCGUAUGUACCGAAUCAAACCCCCCCAAAUUUUUAAAUUUUUUUAAAAAAGUAUUAUGUUACGCCGUUCGGAUCUGC | 1.73
CUGUGCUACACAUCGUAUGUACCGAAUCGGGGAAAAAAGGGGAAAAAAGGGGAAAAAAGGGAAAGUAUUAUGUUACGCCGUUCGGAUCUG | 0.761
UCAAGUCCUGUGCUACACAUCGUAUGUACCGAAUCGGGGUUGGGGUUGGUUGGGGAAAGUAUUAUGUUACGCCGUUCGGAUCUGCACUUC | -0.482
CACAGACAACACGCACCCACACAGACACAGAGGGAAGGGGUUGGGAUGGGGACAGGGUGCUCAGCAGGGCGGGGUAGGACCCCAGCCCCU | -0.0568
UGGCCCUGGUGGUAUGCGGGGAGGAAGAGGUGGCCUCAUGGAUCGUGGUGGUCCCGGUGGAAUGUUCAGAGGUGGCCGUGGUGGAGACAG | 0.787
GCAGGAAGUAAAAACAAAUGGAAAUGCUUCGGAUAGUGGCAGGGGUAGGGGUUGCUAAGGAAAGGGUGGGAUGGGAGUGGGUAAAGAGUU | 1.69
ACCAUGCAGGUGGGCAUCUUUGGGAAGUGGGGCAAGGGGGGGAUAGGGAGGGGGGUAACACUUUGGGAACAUGUGGUCCCAGGUCGUUUC | 1.38
UGUGCUACACAUCGUAUGUACCGAAUCGGGGUUUUUUUGGGUUUUUUUGGGUUUUUUUGGGGAAAGUAUUAUGUUACGCCGUUCGGAUCU | 1.49

Sample 6
Target: Histone acetyltransferase KAT6A, winged helix 1, GST fusion (KAT6A, Homo sapiens, UniProt Q92794, residues 1-85)
Method: protein binding microarray
Form: double-stranded DNA, one strand shown
Medium: in vitro
Tested at: not given
Notes: 8-mer, flanks averaged, mean of 2 arrays, mostly near background
Reference: not given
Direction: higher = stronger binding
Construct (chain): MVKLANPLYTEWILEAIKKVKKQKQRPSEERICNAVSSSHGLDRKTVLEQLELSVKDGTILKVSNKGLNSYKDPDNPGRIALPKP
Oligonucleotide | E-score
CACCCAAG | -0.0265
ACATTGGC | -0.251
ACACGGAG | 0.241
AAGCCGTG | 0.321
AACTAAAC | -0.141
AACATTGA | -0.122
AAGAAACA | -0.0654
CAGTGACG | -0.0158
GAACTTCC | -0.112
AGGCCAAT | -0.234
GCGACTTA | 0.21
ACTTCTCA | -0.265
CTTCTGAA | -0.0141
CGCGAGTA | 0.251
CGCATTTC | 0.146
TGGAGACA | -0.162
GTCAGATA | -0.152

A few entries again (sample 1):
Substitution | binding fitness [natural log]
N42D | -1.36
L31W | -0.495
E32C | -0.46
T37H | 0.155
E54I | -0.0611
L38R | -1.21
E44L | -0.0313
L59F | -0.535
